# Measurements from different studies.
# Every numbered part comes from another study and shows a few of its results, in no order.

# Set 1
# Target: Sal-like protein 4, full length isoform B (SALL4, Homo sapiens, UniProt Q9UJQ4-2, residues 1-616)
# Method: universal PBM
# Form: double-stranded DNA, one strand shown
# Sample: in vitro
# Concentration: not given
# Notes: 8-mer, flanks averaged, mean of replicates
# Direction: higher = stronger binding
Sequence,E-score
AAGTGTTG,0.0425
ATACTAAT,0.319
ACTTAGCC,-0.12
ATCGGAAG,0.106
TCCGTCGA,-0.0889
ACTCGGTA,0.0384
CAATTGGA,0.0291
ACTTTACG,0.155
GGCACGGA,-0.183
ATGCCATC,0.144
AAGACTTG,0.15
GTGGATAA,0.1
AACCAGAA,0.0632
AAACCTCC,-0.119
ACACGTAA,0.234
CAGTTTGC,-0.139
ACTATAGA,0.238
AATTAAAG,0.285
ATGTTGGA,0.0573

# Set 2
# Target: Interferon regulatory factor 3, full length, phosphomimetic (IRF3, Homo sapiens, UniProt Q14653, residues 1-427, S386D/S396D/S398D/S402D/T404D/S405D)
# Method: protein-binding microarray
# Form: double-stranded DNA, one strand shown
# Sample: in vitro
# Concentration: 2540 nM top
# Notes: 60-bp whole probe
# Together with: salmon DNA 0.4 mg/ml
# Relative to: random background probes
# Direction: higher = stronger binding
# Constant ends, left off below: GCCTAGCAC … GTCTTGATTCGCTTGACGCTGCTG
# Residues (chain): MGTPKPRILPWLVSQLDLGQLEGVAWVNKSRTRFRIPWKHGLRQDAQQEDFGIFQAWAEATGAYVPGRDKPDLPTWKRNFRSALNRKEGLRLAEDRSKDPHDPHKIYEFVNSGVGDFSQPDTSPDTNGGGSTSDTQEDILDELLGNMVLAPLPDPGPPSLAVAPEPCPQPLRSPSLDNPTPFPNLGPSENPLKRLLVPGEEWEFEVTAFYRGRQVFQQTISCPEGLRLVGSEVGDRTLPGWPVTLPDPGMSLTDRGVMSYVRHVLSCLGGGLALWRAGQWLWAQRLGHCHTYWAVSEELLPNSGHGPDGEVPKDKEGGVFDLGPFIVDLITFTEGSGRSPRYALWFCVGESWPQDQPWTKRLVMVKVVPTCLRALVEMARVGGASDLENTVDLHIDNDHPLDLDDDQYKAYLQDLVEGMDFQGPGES
Sequence,fitted relative affinity
TTGTGTCTGGGATTTTGTCCGTGCTAG,-0.807 z-score
TTAGGTCTCCTTCTCCTTTCGTGCTAG,4.17 z-score
GACCGACTGGACTATCGGGACGTGCTA,-0.128 z-score
CTTGCTACACATCTCACTCTGTGCTAG,0.599 z-score
TTAGGTTTCTACTTTCGGTTAGTGCTA,3.33 z-score
GTCGATTTCAGTTCCGAGACGTGCTAG,3.93 z-score
GACAGACTGGACACTGGGGACGTGCTA,-0.533 z-score
AGCAGGGCTGATGCTCCCCTGTGCTAG,-1.32 z-score
TTGCTTCCCAATTCTCTTTTCGTGCTA,2.16 z-score
TCAACTTTCTCTGCTCTTTTCGTGCTA,1.23 z-score
TTAGGACTACTTTTCCTTTAGTGCTAG,1.72 z-score
CTAGGTCTCCTTATCCTTTAGTGCTAG,2.74 z-score
GACGATATCGGGCCTGGAGACGTGCTA,-0.403 z-score
GACGGTATCGGGACTGCGGACGTGCTA,1.86 z-score
TTAGGTTTCGACTATCCGTTAGTGCTA,2.71 z-score
TTACATATCGGGTATCGATTAGTGCTA,0.898 z-score
GACGGACTCGGTATCGGGACGTGCTAG,0.749 z-score
TCAGATATGCGGTAAGGGACTGTGCTA,-0.0754 z-score

# Set 3
# Target: Interferon regulatory factor 1, DNA-binding domain (IRF1, Homo sapiens, UniProt P10914, residues 1-114)
# Method: protein-binding microarray
# Form: hairpin DNA
# Sample: in vitro
# Concentration: not given
# Notes: whole hairpin DNA, median over replicate spots
# Relative to: not given
# Direction: higher = stronger binding
# Constant ends, left off below: GAGGCCCG … CGGGCCTCACAC
# Target sequence (chain): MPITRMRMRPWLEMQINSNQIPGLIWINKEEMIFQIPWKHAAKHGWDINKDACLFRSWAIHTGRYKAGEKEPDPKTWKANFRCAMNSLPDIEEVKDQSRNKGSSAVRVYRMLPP
Sequence,median fluorescence [a.u.]
AAAGCGAAACGCCTCCTGGCGTTTCGCTTT (5mC at 7 33),1080
AAAGTGTAACGCCTCCTGGCGTTACACTTT,526
AAAGTCGAACGCCTCCTGGCGTTCGACTTT,538
AAAGCGAACCGCCTCCTGGCGGTTCGCTTT (5mC at 17),536
AAAGCGCGACGCCTCCTGGCGTCGCGCTTT (5mC at 15),522
AAAGTGAAAGGCCTCCTGGCCTTTCACTTT,1710
AAAGCGAAACGCCTCCTGGCGTTTCGCTTT (5mC at 13 33),902
AAAGTGAAAAGCCTCCTGGCTTTTCACTTT,911
AAAGTGATACGCCTCCTGGCGTATCACTTT,524
AAAGCGAAATGCCTCCTGGCATTTCGCTTT,794
AAAGTGCGACGCCTCCTGGCGTCGCACTTT,540
AAAATGAAACGCCTCCTGGCGTTTCATTTT,1130
CAAGTGAAACGCCTCCTGGCGTTTCACTTG (5mC at 9),592
AAAGCGAGACGCCTCCTGGCGTCTCGCTTT,470
CGAGTGAAACGCCTCCTGGCGTTTCACTCG,487
AAAGCGCGACGCCTCCTGGCGTCGCGCTTT (5mC at 15 31),534
AACGTGAAACGCCTCCTGGCGTTTCACGTT (5mC at 11),535
AAAGCGACGCGCCTCCTGGCGCGTCGCTTT (5mC at 30),522

# Set 4
# Target: RNA binding protein fox-1 homolog 2, RRM domain, GST-SBP tag (RBFOX2, Homo sapiens, UniProt O43251-10, residues 100-194)
# Method: RNA Bind-n-Seq
# Form: RNA
# Sample: in vitro
# Concentration: 365 nM
# Notes: natural RNA segment, single round, ends assumed
# Relative to: no-protein control
# Direction: higher = stronger binding
# Constant ends, left off below: GGGAGUUCUACAGUCCGACGAUC … UGGAAUUCUCGGGUGCCAA
Sequence,RBNS enrichment (R)
GACUCCAACACCCUGGAGUGGUUCCGUCAGACCAUGAGGAGCCAAGACCAGCAGGUCCCACAGCCGACAGUGCCCAGAGCAUGCAGGGAACCCUCGUGCAGCUGAGCUGG,1.52
UGGAAACAGUCCACUUGGGCGCAAAACCCAGUGCCUUCCAAAUGAGCUGCAGUCCCCAGGCCAUGAGCCUCCCGGGAAUGUUUAAUAAAGGGCCUGGCCAACUCUCCUCA,0.582
GUGUCCCCAAGAGAGAGGCUGAAGGACUUUCUCGACAUGGUCCUGGCACUUCCCAGCCUGCUUUUGGGAAGGCUCCUAUGGCCCCUGUGGGCACAAUGAAAAUGUUUACA,7.7
UUAUCUUAGUGUGCACUUGAUUGUGAGUUUUAAGAUUAUGGUUUUAGGAUUUCUUUUAUUUUUUGUCUUUUAAAUUGUUCUUUAAUGGAUUUUAAAUGUCUGUAUCUAAU,0.847
CCCUCCCAGUCCACAGGGUCUUCCCACUGCCCCUCCUCUGCCACUGCCACAGAGCAGCUUCCCACCUACCCUAGGGACUCCACAGCUUCUGGCAAGCAGGUGCAGAGUCC,0.467
UGAAAUACUCAGGAGCUGAGUGAGUAUGUUUGUUGCUACUUACAAUCCCAACCUGUUAGUCCCAGUAGUUUUGUUUUAACAUGGUCUUUUUCAACUUUGUUUCCUGUUUA,0.71
GCCCUCAGAGUGCUCAUAUGGGGAGGGGGAUAUCUACUGUGGCUUCCAAAAGUCCCCACUAGUUGGUGUACCUGUCUAUUUCUCUGGAUACUGCUAGCCAAAGGGCUCGG,2.73
UCUAGAAGAUUGAGAAGUGCAUAUGACAGGCUGAGAGCACCUCCCCAAACACACAAGCUCUCAGCCACAGGCAGCUUCUCCACAGCCCCAGCUUCGCACAGGCUCCUGGA,1.03
GAAGAAGGAAAGGCGGUGAGAGCCAGAGCGGUGAUGCCAGAGUGGUGGCCCCUGUGGGGUGUCCUGUCACAGCCAUGUCUAUGGAAUCGCAGAGGCGGUGGGAAGGCUGU,0.993
AGCCCCACAGCCCCAAGCUCGCUGAGGCAACGUGAGAACAGGCUAUGGGAAGGCUGCAAAGGCUGAGAAAUGCAAAGGCUCAUAUUUAUAAAUCCCACCCCCAGAGUGGG,0.804
AUUAUAUUAAUAGUGAGUUUCAGGCCCCUGGGCAUUUUGUACCAUGUAAUUAUCCUCUGGUGAUGCUGUUUCUCGUUAGUGGCAGUAGUGCCUCCGUCUCCUAGUGAUAA,0.441
UUUGUCCUCUUGUCUUAGAGUUGUGUGUAAAUCAAGGAAGCCAUCAUUAAAUUGUUUUAUUUCUCUCCUUUCUGGUUUUUAAGAGAUUUAGGGAACUAGGAAUUUUUCAC,0.654

# Excerpt of the above (set 1):
Sequence,E-score
ACTTAGCC,-0.12
ACTATAGA,0.238
ATGCCATC,0.144
ATGTTGGA,0.0573
ATCGGAAG,0.106
ACTCGGTA,0.0384
